Measurements gathered from unrelated publications.
Protocols differ between the studies behind these lines. “And” joins repeats or separate records; there may be more than shown. Numbers after ± are the reported error.

With CC1=C(c2cccc(O)c2)[C@H](c2ccc(OCCN3CC(CF)C3)cc2)Oc2ccc(O)cc21 the Tmax was 3 h (human, plasma; oral, 1400 mg once daily, steady state median).
With Cc1cc(-c2nccc3c2ccn3CC(=O)Nc2ccc(-c3cnccn3)cn2)ccn1 the Tmax was 1.51 h (human, plasma; oral, 7 mg single dose, median).
CC(=O)Oc1ccccc1C(=O)O has a Tmax of 1.5 h (human, both sexes, plasma; oral, 650 mg, median, added: alcohol).
The Tmax of [H]/N=C(/N)c1ccc(NCc2nc3cc(C(=O)N(CCC(=O)O)c4ccccn4)ccc3n2C)cc1 is reported as 2 h (healthy human subjects, plasma; oral, 150 mg, dabigatran etexilate alone, median).
The Tmax of C=CC(=O)NC1CCN(c2ncc3ncnc(Nc4ccc(Oc5ccc6c(c5)ncn6C)c(C)c4)c3n2)CC1 is reported as 2 h (human male; oral, 60 mg single dose, median).
COc1cc(C(=O)NC2CCN(C)CC2)c(F)cc1Nc1ncc(C(F)(F)F)c(Oc2cccc3c2C(=O)N(C)C3)n1 gave a Tmax of 2.98 h (human patients, plasma; oral, 200 mg single dose, cycle 1 day 1, median).
CCCn1cc(C)c2c(=O)[nH]c(-c3cc(S(=O)(=O)N4CCN(CC)CC4)ccc3OCC)nc21 gave a Tmax of 1.25 h (human, plasma; oral, 100 mg, median, added: alcoholic beverage 0.5 g/kg).
Cc1cn(C(=O)c2c(-c3c(Cl)cc(Cl)cc3Cl)noc2C(C)(C)F)c2cccc(/C=C/C(=O)O)c12 has a Tmax of 2.05 h (human patients; 500 mg bid, cycle 8 day 1).
Fc1ccc([C@@H]2CCNC[C@H]2COc2ccc3c(c2)OCO3)cc1 gave a Tmax of 4.2 h (human, CYP2D6 normal metabolizers; oral, 20 mg, steady state, geometric mean).
COc1ccc([C@@H](O)c2cc(-c3ncnc4cc(N5CCOCC5)ccc34)c(F)cc2Cl)nn1 has a Tmax of 3.5 h (healthy human volunteers, plasma; oral, 100 mg single dose, tablet, fed high-fat, median).
CCN1[C@@H](C(=O)NC23CCC(C(=O)O)(CC2)CC3)[C@H](c2cccc(Cl)c2F)[C@]2(C(=O)Nc3cc(Cl)ccc32)C12CCCCC2 has a Tmax of 4 to 8 h (noncompartmental analysis; human, advanced solid tumours, plasma; oral, 100 to 200 mg).
With CC(C)(C)OC[C@@H]1C(=O)NCCN1C(=O)C[C@H](N)Cc1cc(F)c(F)cc1F the Tmax was 2 h (human, male, plasma; oral, steady state, DP treatment).
The Tmax of CC(C)[C@H](N)C(=O)NCCCS(=O)(=O)O is reported as 1.02 h (median; human, plasma; oral, 256.5 mg twice daily days 2-7, day 7, fed, capsule).
For CC(C)NC(=O)COc1cccc(-c2nc(Nc3ccc4[nH]ncc4c3)c3ccccc3n2)c1, the Tmax was 2 h (human male, plasma; oral, 200 mg, day 3, fed, alone, median).
The Tmax of CNC(=O)c1ccc(-c2cnc3ncc(Cc4ccc5ncccc5c4)n3n2)cc1F is reported as 1.5 h (human mild hepatic impairment NCI; oral, 200 mg single dose, median).
With CO[C@@H]1[C@H](OC(=O)N2CC(CCN3CCOCC3)C2)CC[C@]2(CO2)[C@H]1[C@@]1(C)O[C@@H]1CC=C(C)C the Tmax was 0.27 h (humans, plasma; subcutaneous, 0.6 mg twice weekly, first dose).
For CC(F)(F)c1cc(F)ccc1-c1sc2cc(O)ccc2c1Oc1ccc(/C=C/C(=O)O)cc1, the Tmax was 2 to 3 h (human patients, plasma; oral, once daily, range of medians, preliminary).
For C#C[C@]1(COP(=O)(O)OP(=O)(O)O)O[C@@H](n2cnc3c(N)nc(F)nc32)C[C@@H]1O, the Tmax was 12 h (item: islatravir triphosphate; human, PBMC; oral, 100 mg single dose).
For Cc1ncnc2c1ccn2[C@@H]1C[C@H](Oc2cc(C(F)F)c(F)c3c2CNCC3)[C@@H](O)[C@H]1O, the Tmax was 0.5 h and 1 h (human; oral, 1 mg twice daily).
Cn1ncnc1[C@H]1c2n[nH]c(=O)c3cc(F)cc(c23)N[C@@H]1c1ccc(F)cc1 gave a Tmax of 1 h (human patients, plasma; oral, 600 µg/m2 twice daily day 1, day 5, dose level DL4, median, added: temozolomide 30 mg/m2 daily days 2-6).
CC(C)(C(=O)NC1C2CC3CC1CC(C(N)=O)(C3)C2)N1CCN(c2ccc(C(F)(F)F)cn2)CC1 (stereo not drawn) gave a Tmax of 2.5 h (human, plasma; 1 mg once daily, 5 days, median).
CN(C)C(=O)c1cc2cnc(Nc3ccc(N4CCNCC4)cn3)nc2n1C1CCCC1 has a Tmax of 2 h (human, severe renal impairment, plasma; oral, 400 mg, single dose, median).
For C[C@H](Oc1ccc(Br)cc1-c1ccon1)C(=O)O, the Tmax was 8.01 h (healthy male humans, plasma; oral, 400 mg twice daily, day 10, median).
O=C(O)C[C@H](O)C[C@H](O)/C=C/c1c(C2CC2)nc2ccccc2c1-c1ccc(F)cc1 gave a Tmax of 0.4 h (OATP1B1/1B3 humanized mouse, plasma; oral, 5 mg/kg, added: rifampin 20 mg/kg oral).
The Tmax of NC(CO)(CO)CCc1ccc(Sc2cccc(OCc3ccccc3)c2)cc1Cl is reported as 8 h (human male fasted, whole blood; oral, 3 mg, added: cyclosporin 100 mg b.i.d.).
With N#Cc1cc(NC(=O)[C@H]2c3ccccc3C(=O)N(CC(F)(F)F)[C@@H]2c2cccnc2)ccc1F the Tmax was 1.6 h (human, plasma; oral, 75 mg, median).
COc1ccc([C@@H](O)c2cc(-c3ncnc4cc(N5CCOCC5)ccc34)c(F)cc2Cl)nn1 gave a Tmax of 2.33 h (plasma pharmacokinetics; human; oral, 150 mg capecitabine, single dose, median).
C#C[C@]1(CO)O[C@@H](n2cnc3c(N)nc(F)nc32)C[C@@H]1O has a Tmax of 0.5 h (human, plasma; oral, 200 mg, single dose, median).
The Tmax of CO[C@]1(C(=O)N[C@@H](C)c2ccc(-n3cc(F)cn3)nc2)CC[C@H](c2nc(C)cc(Nc3cc(C)[nH]n3)n2)CC1 is reported as 2 h (human, plasma; oral, 200 mg, median).
Cn1c(=O)oc2ccc(-c3ccc(C[C@@H](C#N)NC(=O)[C@@H]4CNCCCO4)cc3)cc21 gave a Tmax of ≤ 3 h (human, plasma; oral, 25 mg single).
With C=CC(=O)N(C)CCOc1c(N)ncnc1-c1cc(F)cc(NC(=O)c2ccc(C3CC3)cc2F)c1C the Tmax was 0.77 h (human, fasted, whole blood; oral, 60 mg single dose, food effect study, median).
For Cc1noc(C)c1-c1cc(C(O)(c2ccccn2)c2ccccn2)c2nc(C3CC3)[nH]c2c1, the Tmax was 0.5 h (human male patients, fasted, plasma; oral, 2 mg once daily, cycle 1 day 8).
The Tmax of C#C[C@]1(COP(=O)(O)O)O[C@@H](n2cnc3c(N)nc(F)nc32)C[C@@H]1O is reported as 6 h (item: islatravir triphosphate; human, PBMC; oral, 5 mg single dose).
For CCn1cc(C(=O)N2CCOCC2)c(=O)c2cc(NC3Cc4ccccc4C3)cnc21, the Tmax was 3 h (human, fed; oral suspension, 600 mg/day twice daily, day 1, median).
With Cc1cc(C)c(CNC(=O)c2cc(Cl)c3c(c2C)O[C@@](C)([C@H]2CC[C@H](N(C)C)CC2)O3)c(=O)[nH]1 the Tmax was 3 h (median; healthy male humans, plasma; oral, 25 mg, day 11, added: itraconazole).
The Tmax of Cc1cc(C)c(CNC(=O)c2cc(Cl)c3c(c2C)O[C@@](C)([C@H]2CC[C@H](N(C)C)CC2)O3)c(=O)[nH]1 is reported as 3.87 h (human, NHL patients, plasma; oral, 200 mg/day, cycle 1 day 1, once daily).
The Tmax of CCOc1c([C@H](C)n2nc(C)c3c(N)ncnc32)cc(Cl)c(F)c1[C@@H]1CNC(=O)C1 is reported as ~1 h (human, fasted, plasma; oral, dose not given, median).
The Tmax of COc1ncc(-c2nc3c(n2C(C)C)[C@H](c2ccc(Cl)cc2)N(c2cc(Cl)cn(C)c2=O)C3=O)c(OC)n1 is reported as 3.4 h (LC-MS/MS, noncompartmental; human, plasma; oral, 2 mg, C1D1, low-dose, median).
CCS(=O)(=O)Nc1ccc(Oc2ccc(F)cc2F)c(-c2cn(C)c(=O)c3[nH]ccc23)c1 gave a Tmax of 2 h (human, plasma; oral, 1.5 mg, cycle 1 day 8, median).
With C[C@H]1[C@@H](O)O[C@@H]2O[C@@]3(C)CC[C@H]4[C@H](C)CC[C@@H]1[C@@]24OO3 the Tmax was 1.04 h (human, both sexes, plasma; oral, dose not given, non-fixed combination).
Cc1cc(-c2nnc(N)nc2-c2ccc(F)cc2)cc(Cl)n1 has a Tmax of 0.5 h (human patients, plasma; oral, 75 mg nanosuspension, single dose, median).
With CC(C)(Sc1ccncc1-c1ccc(C#N)c2ccccc12)C(=O)O the Tmax was 3.5 h (human, plasma; oral, 2.5 mg once daily, median, added: febuxostat 0 mg).
For CN(CC#N)C(=O)C[C@H](Nc1nc2ccccc2[nH]1)c1cccc(C(F)(F)F)c1, the Tmax was 0.41 ± 0.08 h (human; intravenous infusion, 1 mg/kg, 5 mg/mL formulation).
COc1ccc([C@@H](O)c2cc(-c3ncnc4cc(N5CCOCC5)ccc34)c(F)cc2Cl)nn1 gave a Tmax of 1.47 h (human; oral, 250 mg once daily, single dose, median).
With NC[C@@]1(CC(=O)O)[C@@H]2CC[C@H]3C[C@@H]2[C@@H]1C3 the Tmax was 1 h (human, normal renal function, plasma; oral, 20 mg single dose, median).
For COc1ccc2c3c1O[C@H]1C[C@@H](OC(=O)c4ccccc4)C=C[C@@]31CCN(C)C2, the Tmax was 0.5 h (human, plasma; intranasal, 33 mg single dose).
C[C@@H]1CCO[C@H]2Cn3cc(C(=O)NCc4ccc(F)cc4F)c(=O)c(O)c3C(=O)N12 gave a Tmax of 5.5 h (human, normal renal function, plasma; oral, steady state, fixed-dose combination).
The Tmax of NC(=O)c1[nH]cnc1N is reported as 1.33 h (human patients, plasma; IV infusion over 1 h, 1000 mg/m^2 DTIC, cycle 2 day 1, co-administered with co-drug).
The Tmax of O=C1CC[C@H](N2Cc3cc(N4CCN(CC5CCN(c6ccc([C@@H]7c8ccc(O)cc8CC[C@@H]7c7ccccc7)cc6)CC5)CC4)ccc3C2=O)C(=O)N1 is reported as 7.5 h (human, plasma; oral, 200 mg, added: rosuvastatin 10 mg).
With COc1nnc2ccc(N3CCC(c4ccc(OCCN5CCN(C)C(=O)[C@H]5C)cc4)CC3)nn12 the Tmax was 0.5 to 3 h (human, plasma; oral, dose not given, single dose, monotherapy, across dose cohorts).
NS(=O)(=O)OC[C@@H]1C[C@@H](n2ccc3c(N[C@H]4CCc5ccccc54)ncnc32)C[C@@H]1O gave a Tmax of 1.05 h (LC-MS/MS, non-compartmental; human, plasma; intravenous, all dose levels, cycle 1 day 1, median).
CC1(COc2ccc3c(c2)ncn3-c2ccc3cccc(N4CCC(N)CC4)c3n2)COC1 has a Tmax of 4 h (human patients, recurrent/progressive HGG or DIPG, serum; oral, 130 mg/m^2, day 1, median).
CCCCCCCOc1ccc(CCC(N)(CO)CO)cc1C(F)(F)F.Cl gave a Tmax of 10 h (healthy human males, plasma; 0.25 mg, day 21, median).
For C[C@H](NC(=O)/C(C#N)=C/c1cccc(Br)n1)c1ccccc1, the Tmax was 0.5 h (LC-MS/MS; human, plasma; oral, 4 mg/kg, cycle 1 day 1).

Excerpt of the above:
With CC1=C(c2cccc(O)c2)[C@H](c2ccc(OCCN3CC(CF)C3)cc2)Oc2ccc(O)cc21 the Tmax was 3 h (human, plasma; oral, 1400 mg once daily, steady state median).
For C[C@H](Oc1ccc(Br)cc1-c1ccon1)C(=O)O, the Tmax was 8.01 h (healthy male humans, plasma; oral, 400 mg twice daily, day 10, median).
The Tmax of NC(CO)(CO)CCc1ccc(Sc2cccc(OCc3ccccc3)c2)cc1Cl is reported as 8 h (human male fasted, whole blood; oral, 3 mg, added: cyclosporin 100 mg b.i.d.).
